Results pooled from the literature.
Numbered parts are unrelated; each lists some results of a single study.

Study 1
Target: RING finger protein unkempt homolog, zinc fingers 1-6, GST-SBP tag (UNK, Homo sapiens, UniProt Q9C0B0, residues 30-357)
Chain of UniProt Q9C0B0 (30-357, looked up): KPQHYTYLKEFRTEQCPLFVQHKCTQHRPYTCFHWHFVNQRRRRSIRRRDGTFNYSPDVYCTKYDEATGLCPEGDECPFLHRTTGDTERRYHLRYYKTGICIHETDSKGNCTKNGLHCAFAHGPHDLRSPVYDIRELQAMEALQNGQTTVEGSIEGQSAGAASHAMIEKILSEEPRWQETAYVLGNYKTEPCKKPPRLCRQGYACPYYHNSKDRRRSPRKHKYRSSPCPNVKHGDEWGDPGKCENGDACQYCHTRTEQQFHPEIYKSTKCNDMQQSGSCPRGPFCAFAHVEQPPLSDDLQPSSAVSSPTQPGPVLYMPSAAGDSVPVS
Technique: RNA Bind-n-Seq
Molecule type: RNA
Sample: in vitro
Tested at: not given
Notes: RNA with constant flanks, human-mouse chimeric sites, ends assumed
Baseline: input RNA pool
Direction: higher = stronger binding
Measurement: bound/input enrichment
Constant ends, left off below: GGGAGUUCUACAGUCCGACGAUC … CAACAGAGGAUUGAGCAUCA
UUAUCCAAGACUCAACGAAAGACUCCAACCGUUAUUCAUAAACAUUAUCAAAUUCAUCGGAUUCGACAUUUUUACAUGAGAAAAGUCAAAUUUACUCAACAGAAUUACCAUGACAGACUG: 0.425 ratio
GAUAAGAAAAGCUUGUUGGAGACCCGCUUGCAUGUCACUGGUAGAGACCUGAGGUGUCAAAUAGCUGAAACCUUUGGAUUUCAAGAAAAUUACAUCAAAAUUGUCAUAAAUAAGAAACAG: 0.266 ratio
UGUAGUUUCUUGAUUUAUCAUUUUUCUCUUUUCUUUCAGAUCGUCAGGAAAAGCCUAAAGAUUAGGUUGUAAGAAAAACAGAAGCCAUGUUUCGAAGACCUGUGUUACAGGUAUUUCGUC: 0.468 ratio
AAAUCGUGUGUGUCCAAUAUUGAAAGUGCUUUAUCUACACUCCAGUAUGUAAGCAGCAUAGUAGUUUCUUUAGAGAAUAGGUCAGCCAUUGUGAAGUACAAUGCAAGCUUAGUCACUCCA: 10.4 ratio
AACUUCGUGCAUCGGUUUCCUUUUGUAGCUGUUUCAAUUGGCUUCCUUGUGAAUAAAGAGAUGGAGUUUGGAAUUGUGUACAGUUGUGUGGAAGAUAAGAUGUACACCGGCAGGAAAGGG: 0.427 ratio
AUCCCAAUUAUGGACACCGGUGAAAACCCAGAGGUUCCCUUCCCCCGGGACAUGAUUGACUUAGAGGCCAAUUUUGAGAAGAUUGAAAAUGAACUGAAGGAAAUCAACACAAACCAGGAA: 0.264 ratio
CAGCUGCGAGGCCGCGGUUUCCCCCUGGGCCUCCCCAGCAGCAGCCAUGGGCAUCAAAUUUUUAGAAGUUAUCAAACCAUUCUGUGCAGUUCUACCAGAAAUUCAGAAGCCUGAAAGGAA: 0.548 ratio
CAGCCUCAGAGCCCAGACUUCCUGGAUAUUACCAACCCUAAAGCGGUAUUAGAAAAUGCACUUAGGAACUUUGCCUGUCUGACGACUGGAGAUGUGAUUGCUAUCAACUACAAUGAGAAG: 1.44 ratio

Study 2
Target: Sal-like protein 4, full length isoform B (SALL4, Homo sapiens, UniProt Q9UJQ4-2, residues 1-616)
Technique: universal PBM
Molecule type: double-stranded DNA, one strand shown
Sample: in vitro
Tested at: not given
Notes: 8-mer, flanks averaged, mean of replicates
Direction: higher = stronger binding
Measurement: E-score
Construct (chain): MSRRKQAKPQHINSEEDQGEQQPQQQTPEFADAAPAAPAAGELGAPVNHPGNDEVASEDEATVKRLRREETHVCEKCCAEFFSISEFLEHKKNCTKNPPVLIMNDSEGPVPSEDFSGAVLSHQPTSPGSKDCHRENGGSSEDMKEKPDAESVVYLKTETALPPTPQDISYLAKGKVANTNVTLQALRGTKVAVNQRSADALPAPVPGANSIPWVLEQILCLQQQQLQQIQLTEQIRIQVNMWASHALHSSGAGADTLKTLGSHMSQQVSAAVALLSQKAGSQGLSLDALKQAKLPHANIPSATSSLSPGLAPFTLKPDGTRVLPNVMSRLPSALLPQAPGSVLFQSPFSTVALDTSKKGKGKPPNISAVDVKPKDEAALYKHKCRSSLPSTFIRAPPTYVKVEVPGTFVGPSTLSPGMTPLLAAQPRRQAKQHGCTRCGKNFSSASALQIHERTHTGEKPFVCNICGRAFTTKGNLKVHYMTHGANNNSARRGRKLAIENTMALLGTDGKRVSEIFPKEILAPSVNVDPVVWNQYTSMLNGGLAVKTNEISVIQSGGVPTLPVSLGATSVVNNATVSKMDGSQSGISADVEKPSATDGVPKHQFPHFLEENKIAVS
CGTTGGCC: -0.264
ACCTTAAA: 0.0768
CGCCCCCC: -0.464
AAACGTGT: 0.126
CAAGGGCG: -0.146
AATGTTCT: 0.123
GCCTGCCC: -0.321
AATTGATA: 0.311
AAATTGTC: 0.16
AAATCACT: 0.196
AATGCTGA: 0.0529
AAGGACGT: 0.214
GTCAGCGA: -0.214
GCCACGCA: -0.286
TGTGTAAA: 0.301
CGTATCAG: -0.109
CGTATTAC: 0.174
ATCGGTGA: 0.026
CGATGAAG: 0.0298
ACGCTGCT: -0.0942
AACCCTAC: -0.115
ATCGATCA: 0.0338

Study 3
Target: Histone acetyltransferase KAT6A, winged helix 2, GST fusion (KAT6A, Homo sapiens, UniProt Q92794, residues 85-181)
Technique: protein binding microarray
Molecule type: double-stranded DNA, one strand shown
Sample: in vitro
Tested at: not given
Notes: 8-mer, flanks averaged, mean of 2 arrays, mostly near background
Baseline: not given
Direction: higher = stronger binding
Measurement: E-score
Construct (chain): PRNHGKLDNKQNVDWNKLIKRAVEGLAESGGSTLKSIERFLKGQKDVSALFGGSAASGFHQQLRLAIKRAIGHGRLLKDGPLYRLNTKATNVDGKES
CAGTACGG: -0.0614
AGGGTTCG: 0.0592
CTTATCGC: -0.0691
AAGAATAG: 0.0557
ACCTTCAC: -0.149
CTGCTATA: 0.128
CCTCATGC: -0.0133
CCTGACGC: -0.0477
ACTGCGCA: 0.118
GCCTTGTA: 0.0154
ATACGCAG: 0.0433
AACAGCGG: -0.0362
ATGTCGTC: -0.0668
AAAAGCTA: -0.0777
ATCTGTTG: -0.04
GCGCCAGA: 0.149
TGCGCTAA: -0.0416
AGTACACA: -0.0495
CGCTCATA: -0.141
AGACCGGA: 0.00675
CCGCTGTC: 0.15
ATGTTAAT: -0.00317
AGCCTTTC: 0.0974
ATATTGTG: -0.141
AAAAGACG: 0.0976

Study 4
Target: Interferon regulatory factor 5, full length, phosphomimetic (IRF5, Homo sapiens, UniProt Q13568-2, residues 1-514, S451D/S453D/S456D/S462D)
Technique: protein-binding microarray
Molecule type: double-stranded DNA, one strand shown
Sample: in vitro
Tested at: 940 nM top
Notes: 60-bp whole probe
Added: salmon DNA 0.4 mg/ml
Baseline: random background probes
Direction: higher = stronger binding
Measurement: fitted relative affinity
Constant ends, left off below: GCCTAGCAC … GTCTTGATTCGCTTGACGCTGCTG
TCAACTTTAACTTATTCTACTGTGCTA: 0.916 z-score
TCATATATATTATATATTACTGTGCTA: 0.206 z-score
TCAAATATATGTATATAACTGTGCTAG: -0.0607 z-score
TTAGGACTGGGTCTCGATTAGTGCTAG: 0.954 z-score
GACGGTATCGGGTGTCGGGACGTGCTA: 4.96 z-score
GGCGATATCGGGTTTCGAGACGTGCTA: 2.34 z-score
CACAGAACATATTAGTATATGTGCTAG: 0.199 z-score
TTAGAGTTCAGTTTCGATTAGTGCTAG: 8.78 z-score
ATGCTTCTGTATTCATGAAGGTGCTAG: 0.0259 z-score
TCAACTCTGAACCTTGGACTGTGCTAG: -0.399 z-score
TTAGATTTAGGGTATCGATTAGTGCTA: 1.77 z-score
TCAATCCTATATCTGAAACTGTGCTAG: 0.55 z-score
TCAGGTTCTCTTTTATTACTGTGCTAG: 1.18 z-score
GACGAACTGGGGACTGGGGACGTGCTA: -0.0719 z-score
TGCTTCCTCTTTCTCTGCTAGTGCTAG: 1.96 z-score
TTAGAACTGGGGACTCGATTAGTGCTA: 0.0293 z-score
GACGGTTCCCTTTTACTGACGTGCTAG: 0.834 z-score
TCAGGTTTCCTTCTCCTTTAGTGCTAG: 1.94 z-score
GACGATATCAGTATCGCGACGTGCTAG: 0.208 z-score

Excerpt of the above (study 1):
AACUUCGUGCAUCGGUUUCCUUUUGUAGCUGUUUCAAUUGGCUUCCUUGUGAAUAAAGAGAUGGAGUUUGGAAUUGUGUACAGUUGUGUGGAAGAUAAGAUGUACACCGGCAGGAAAGGG: 0.427 ratio
AAAUCGUGUGUGUCCAAUAUUGAAAGUGCUUUAUCUACACUCCAGUAUGUAAGCAGCAUAGUAGUUUCUUUAGAGAAUAGGUCAGCCAUUGUGAAGUACAAUGCAAGCUUAGUCACUCCA: 10.4 ratio
CAGCUGCGAGGCCGCGGUUUCCCCCUGGGCCUCCCCAGCAGCAGCCAUGGGCAUCAAAUUUUUAGAAGUUAUCAAACCAUUCUGUGCAGUUCUACCAGAAAUUCAGAAGCCUGAAAGGAA: 0.548 ratio
AUCCCAAUUAUGGACACCGGUGAAAACCCAGAGGUUCCCUUCCCCCGGGACAUGAUUGACUUAGAGGCCAAUUUUGAGAAGAUUGAAAAUGAACUGAAGGAAAUCAACACAAACCAGGAA: 0.264 ratio
UGUAGUUUCUUGAUUUAUCAUUUUUCUCUUUUCUUUCAGAUCGUCAGGAAAAGCCUAAAGAUUAGGUUGUAAGAAAAACAGAAGCCAUGUUUCGAAGACCUGUGUUACAGGUAUUUCGUC: 0.468 ratio
CAGCCUCAGAGCCCAGACUUCCUGGAUAUUACCAACCCUAAAGCGGUAUUAGAAAAUGCACUUAGGAACUUUGCCUGUCUGACGACUGGAGAUGUGAUUGCUAUCAACUACAAUGAGAAG: 1.44 ratio
UUAUCCAAGACUCAACGAAAGACUCCAACCGUUAUUCAUAAACAUUAUCAAAUUCAUCGGAUUCGACAUUUUUACAUGAGAAAAGUCAAAUUUACUCAACAGAAUUACCAUGACAGACUG: 0.425 ratio
GAUAAGAAAAGCUUGUUGGAGACCCGCUUGCAUGUCACUGGUAGAGACCUGAGGUGUCAAAUAGCUGAAACCUUUGGAUUUCAAGAAAAUUACAUCAAAAUUGUCAUAAAUAAGAAACAG: 0.266 ratio
